Measurements gathered from unrelated publications.
Protocols differ between the studies behind these lines. “And” joins repeats or separate records; there may be more than shown. ± gives the spread as reported.

CCCCN1C(=O)c2cccc3c(NCCCCCCCCN4CCOCC4)ccc(c23)C1=O  emission maximum (dioxane): 516 nm
O=C(NS(=O)(=O)c1cccs1)c1cc2ccccc2n1Cc1ccc(Br)c2ccccc12  body weight (KM mouse, chronic hyperuricaemia model; dose not given, day 4): 27.8 g and 28.5 g and 28.8 g and 25.6 g and 28.9 g and 27.6 g
CC(=O)N([O-])CCCCCNC(=O)CCC(=O)N([O-])CCCCCNC(=O)CCC(=O)N([O-])CCCCCN.[89Zr+4]  tracer uptake (mouse, pancreas; 4 h): 1.01 %ID/g
C=C(NC(=O)c1csc(-c2nc3c(cc2O)-c2nc(cs2)C(=O)NC(C(C)O)C(=O)NC(=C(C)OC)c2nc(cs2)C(=O)NC2c4nc(cs4)C(=O)NC(COC(=O)c4c5c6c(cccc6n4O)COC(=O)C(OC4CC(C)(O)C(N(C)C)C(C)O4)C2OC5)c2nc-3cs2)n1)C(N)=O (stereo not drawn)  AUC(0-inf) (cynomolgus monkey, male, plasma; intravenous infusion, 1.5 mg/kg twice daily, 0 to 30 h): 26900 ng·h/mL
Cc1cnc2nc1Nc1cccc(c1)COC/C=C/COCc1cc(ccc1OCCN1CCOCC1)N2  body weight (BALB/c mice, rhEPO-induced polycythemia; 75 mg/kg, day 2): 17.9 g and 19 g and 17.8 g and 19.3 g and 18.3 g and 19.7 g
C/C(N)=N/C(=N\S(=O)(=O)c1ccc(C(F)(F)F)cc1)N1C[C@H](c2ccccc2)C(c2ccc(Cl)cc2)=N1  AUC(0-inf) (cynomolgus monkey, female, plasma; intravenous, 2 mg/kg): 18400 ng·h/mL
N#Cc1ccnc(N2Cc3cn(Cc4ccc(F)cc4)nc3C2)n1  half-life (metabolic stability; rat, liver microsomes): 0.0283 h
COc1cccc(OC)c1-c1cc(C(=O)NC2(C(=O)O)C3CC4CC(C3)CC2C4)nn1-c1ccc(C(=O)NCCNC(=O)[C@H](CCCCNC(=O)[C@H](CC(C)C)NC(=O)C2OC2C(=O)O)NC(=O)CN2CCN(CC(=O)[O-])CCN(CC(=O)[O-])CCN(CC(=O)[O-])CC2)cc1C(C)C.[177Lu+3] (mixture of isomers)  tumour-to-pancreas ratio (mouse HT-29 xenograft; 4 h, biodistribution; baseline: tumour over pancreas): 17.5
CCCCN1C(=O)c2cccc3c(NCCN4CCOCC4)ccc(c23)C1=O  emission maximum (DMSO): 533 nm
O=C(Nc1cnccc1-c1ccc([18F])nc1)c1ccnc(NC(=O)C2CC2)c1  SUV (FVB/NJ mice, both sexes, liver; intravenous, 5 min, median, no P-gp inhibitor): 6.63
CN1CCN(c2ccc(/C=C/c3cc(=O)cc(/C=C/c4ccc(N5CCN(C)CC5)cc4)o3)cc2)CC1  emission maximum (acetonitrile; 10 µM, 298 K): 565 nm
Clc1cc2nc(c1)CNCc1cc(Cl)cc(n1)CNC2  sum of log protonation constants (potentiometry): 13.9
COc1cccc(OC)c1-c1cc(C(=O)NC2(C(=O)O)C3CC4CC(C3)CC2C4)nn1-c1ccc(C(=O)N(C)CCCN(C)CCCN(C)C(=O)[C@H](CCCCNC(=O)[C@H](CC(C)C)NC(=O)C2OC2C(=O)O)NC(=O)CN2CCN(CC(=O)[O-])CCN(CC(=O)[O-])CCN(CC(=O)[O-])CC2)cc1C(C)C.[177Lu+3] (mixture of isomers)  tumour-to-spleen ratio (mouse HT-29 xenograft; 72 h, biodistribution; baseline: tumour over spleen): 8.43
CCCCN1C(=O)c2cccc3c(NCCCCN4CCOCC4)ccc(c23)C1=O  emission maximum (toluene): 498 nm
CC[C@H](C)[C@@H]1NC(=O)[C@H](Cc2ccc(O)cc2)NC(=O)CSC[C@@H](C(N)=O)NC(=O)[C@H](CC(N)=O)NC(=O)[C@H](Cc2cnc[nH]2)NC(=O)[C@H](Cc2ccc(O)cc2)NC(=O)[C@H](CC(=O)O)NC(=O)[C@H](Cc2ccc(O)cc2)NC(=O)[C@H](CC(C)C)NC(=O)[C@H](CCCNC(=N)N)NC1=O  membrane retention (PAMPA; 200 µM, 5 h, pH 7.4): < -0.04%
Cc1[nH]c(=O)c(CNC(=O)c2cc(Cl)c3c(c2C)O[C@@](C)([C@H]2CC[C@H](N(C)C)CC2)O3)c(C)c1O  excretion (healthy men, urine and feces; oral, 200 mg [14C]-valemetostat; baseline: dose): 6.4%
C[C@H](CCC(=O)NCC(=O)O)[C@H]1CC[C@H]2[C@@H]3[C@H](O)C[C@@H]4C[C@H](OS(=O)(=O)O)CC[C@]4(C)[C@H]3CC[C@]12C  relative peak deviation (human, plasma; endogenous baseline diurnal; baseline: daily mean concentration): 95.2 ± 10%
CN(C)C(=O)c1ccnc(N2Cc3cn(Cc4ccc(Cl)cc4)nc3C2)n1  half-life (metabolic stability; rat, liver microsomes): 6.22 h
CC[C@H](C)[C@@H]1NC(=O)[C@H](Cc2ccc(O)cc2)NC(=O)CCCSC[C@@H](C(=O)N(CC(=O)N[C@@H](CC(C)C)C(=O)NCC(N)=O)Cc2ccc(F)cc2)NC(=O)[C@H](CC(N)=O)NC(=O)[C@H](CCC(N)=O)NC1=O  adverse drug reactions (human; intranasal, 5 µg single dose): 50%
CC(C)C[C@H](NC(=O)[C@H](CCCN)NC(=O)CNC(=O)[C@@H](NC(=O)[C@H](C)NC(=O)[C@@H]1CSCSC[C@H](NC(=O)CC[C@H](N)C(=O)O)C(=O)N[C@@H](CC(N)=O)C(=O)N[C@@H]([C@@H](C)O)C(=O)N[C@@H](C)C(=O)N[C@@H]([C@@H](C)O)C(=O)N1)[C@@H](C)O)C(=O)N[C@@H](C)C(=O)N[C@@H](CCC(=O)O)C(=O)N[C@@](C)(Cc1ccccc1)C(=O)N[C@@H](CC(C)C)C(=O)N[C@H](C(=O)N[C@@H](CCCNC(=N)N)C(=O)N[C@@H](CO)C(=O)N[C@@H](CO)C(=O)N[C@@H](CC(N)=O)C(=O)N(C)[C@@H](CC(N)=O)C(=O)N[C@@H](Cc1ccccc1)C(=O)NCC(=O)N1CCC[C@H]1C(=O)N[C@@H](CCCCNC(=O)CC[C@H](NC(=O)CC[C@H](NC(=O)CCCCCCCCCCCCCCCCCCC(=O)O)C(=O)O)C(=O)O)C(=O)N[C@@H](CC(C)C)C(=O)N1CCC[C@H]1C(=O)N1CCC[C@H]1C(=O)N[C@H](C(=O)N[C@@H](CCC(=O)O)C(=O)N[C@H](C(=O)NCC(=O)N[C@@H](CO)C(=O)N[C@@H](CC(N)=O)C(=O)N[C@H](C(=O)N[C@@H](Cc1ccc(O)cc1)C(N)=O)[C@@H](C)O)C(C)C)[C@@H](C)O)C(C)C  Tmax (human, plasma; subcutaneous, 0.04 mg, single dose, healthy volunteers): 132 h
CC[C@H](C)[C@H](NC(=O)[C@H](CC(=O)O)NC(C)=O)C(=O)N[C@@H](Cc1ccccc1)C(=O)N[C@@H](Cc1ccccc1)C(=O)N[C@@H](CCCNC(=N)N)C(=O)N[C@@H](Cc1ccc(O)cc1)C(=O)N[C@@H](CC(N)=O)C(=O)NCC(=O)N[C@@H](CCCCN)C(=O)N[C@H](C(=O)N[C@@H](Cc1c[nH]c2ccccc12)C(=O)N[C@@H](Cc1c[nH]c2ccccc12)C(=O)N[C@@H](CCCNC(=N)N)C(=O)O)C(C)C  β-strand content (circular dichroism; free peptide in solution; concentration not given, 25 °C, no insulin present): 40.3%
CC(C)(c1cc(Br)c(O)c(Br)c1)c1cc(Br)c(O)c(Br)c1  dose fraction in skim milk (whole cow milk; 2000 nM nominal): 46.1%
C=CC(=O)Nc1cc(Nc2nccc(-c3cn(C)c4ccccc34)n2)c(OC)cc1N(C)CCNC  recovery (storage stability; human plasma; 30 d, on ice, LQC level): 56.7%
CN1Cc2c(NCc3ccc(CN4CCN(c5ccc(C#N)c(F)c5)CC4)cc3)cccc2C(=O)N1C1CCC(=O)NC1=O (stereo not drawn)  organ weight (mouse xenograft, lung; dose not given): 149 mg
O=C1C2CC3CC1CC(C(=O)N1CCN(c4ccc([N+](=O)[O-])c5ncccc45)CC1)(C3)C2  MRT (male ICR mouse, plasma; intravenous, 1 mg/kg): 6 min
COc1ccnc(C(=O)N[C@H]2COC(=O)[C@H](Cc3ccccc3)[C@@H](OC(=O)C(C)C)[C@H](C)OC2=O)c1O  Freundlich coefficient KF (soil adsorption; clay loam soil; pH 7.2, organic carbon 4.4 %): 79.5 mL/g
O=C(Nc1cnccc1-c1ccc([18F])cc1)c1ccnc(NC(=O)C2CC2)c1  mean SUV (ex vivo biodistribution, gamma counting; GSK-3β overexpressing transgenic mouse, late stage, left kidney; intravenous, 120 min post-injection, added: tariquidar 15 mg/kg iv, at least 2 h before tracer): 1.39
CC(C)(O)c1ncc([S@](N)(=O)=NC(=O)Nc2c3c(cc4c2CCC4)CCC3)s1  subjects with adverse events (refers to: infections and infestations; healthy human volunteers; oral, 25 mg twice daily, 14 days, enteric-coated tablet): 13%
C=C[C@]1(C)C[C@@H](OC(=O)CSc2ccc(NC(=O)c3ccco3)cc2)[C@]2(C)[C@H](C)CC[C@]3(CCC(=O)[C@H]32)[C@@H](C)[C@@H]1O  plasma concentration (Mycoplasma gallisepticum-infected chickens, plasma; intramuscular, 5 mg/kg, 10 h): 24.4 ng/mL and 11.1 ng/mL and 14.4 ng/mL and 18.4 ng/mL and 8.78 ng/mL and 11.5 ng/mL and 17.3 ng/mL and 10.4 ng/mL
CCCCN1C(=O)c2cccc3c(NCCCCCCN4CCOCC4)ccc(c23)C1=O  emission maximum (dioxane): 513 nm
[123I]c1ccc2nc(-c3ccc(-n4ccnn4)nc3)cn2c1  tracer uptake (male Wistar rat, heart; intravenous, 4 MBq, 30 min): 0.2 %ID/g
O=C(c1ccccc1)N1C(c2ccc(OCC3CCN(CCCF)C3)cc2)c2ccc(O)cc2CC12CC2 (stereo not drawn)  Cmax (C57BL/6J mouse, plasma; intraperitoneal, 25 mg/kg, group mean): 5050 ng/mL
CCCCN1C(=O)c2cccc3c(NCCCCCN4CCOCC4)ccc(c23)C1=O  emission maximum (DMF): 526 nm
Cc1[nH]nc2c1N=C(c1ccccc1Cl)c1cnc(N3CCOCC3)cc1N2  AUC(0-last) (nude mouse, HCC1806 xenograft, plasma; oral, 5 mg/kg once daily): 707 ng·h/mL
COc1cccc2c(N3CCC(CCP(=O)(O)O)CC3)ncnc12  half-life (female C57BL/6 mouse, brain; subcutaneous, 50 mg/kg): 2.3 h
CCCCN1C(=O)c2cccc3c(NCCCN4CCOCC4)ccc(c23)C1=O  emission maximum (water; pH 6.0): 548 nm
CCC(C(=O)Nc1ccc(C(N)=O)c(F)c1)n1cc(OC)c(-c2cc(Cl)ccc2-n2cc(C(F)(F)F)nn2)cc1=O (stereo not drawn)  adverse events (healthy male humans; 50 mg, added: omeprazole): 28.6%
Cc1cc(NC(=O)[C@H](O)c2cc(F)cc(F)c2)ccc1-c1cnc(N)c(C(=O)NC(C)C)c1  Tmax (female nude mouse, plasma; oral, 3 mg/kg, single dose): 1 h
CC(C(=O)O)n1nc(Cn2cc3cc(OCC[18F])c(Cl)cc3n2)c2ccccc2c1=O (racemic)  tracer uptake (rat, lung; 1 h): 0.2 %ID/g

Repeated from above:
O=C(NS(=O)(=O)c1cccs1)c1cc2ccccc2n1Cc1ccc(Br)c2ccccc12  body weight (KM mouse, chronic hyperuricaemia model; dose not given, day 4): 27.8 g and 28.5 g and 28.8 g and 25.6 g and 28.9 g and 27.6 g
CC(=O)N([O-])CCCCCNC(=O)CCC(=O)N([O-])CCCCCNC(=O)CCC(=O)N([O-])CCCCCN.[89Zr+4]  tracer uptake (mouse, pancreas; 4 h): 1.01 %ID/g
C=C(NC(=O)c1csc(-c2nc3c(cc2O)-c2nc(cs2)C(=O)NC(C(C)O)C(=O)NC(=C(C)OC)c2nc(cs2)C(=O)NC2c4nc(cs4)C(=O)NC(COC(=O)c4c5c6c(cccc6n4O)COC(=O)C(OC4CC(C)(O)C(N(C)C)C(C)O4)C2OC5)c2nc-3cs2)n1)C(N)=O (stereo not drawn)  AUC(0-inf) (cynomolgus monkey, male, plasma; intravenous infusion, 1.5 mg/kg twice daily, 0 to 30 h): 26900 ng·h/mL
